Results pooled from the literature.
ACHE: Acetylcholinesterase (ACHE, Homo sapiens, UniProt P22303)
Chain of UniProt P22303 (whole entry, looked up): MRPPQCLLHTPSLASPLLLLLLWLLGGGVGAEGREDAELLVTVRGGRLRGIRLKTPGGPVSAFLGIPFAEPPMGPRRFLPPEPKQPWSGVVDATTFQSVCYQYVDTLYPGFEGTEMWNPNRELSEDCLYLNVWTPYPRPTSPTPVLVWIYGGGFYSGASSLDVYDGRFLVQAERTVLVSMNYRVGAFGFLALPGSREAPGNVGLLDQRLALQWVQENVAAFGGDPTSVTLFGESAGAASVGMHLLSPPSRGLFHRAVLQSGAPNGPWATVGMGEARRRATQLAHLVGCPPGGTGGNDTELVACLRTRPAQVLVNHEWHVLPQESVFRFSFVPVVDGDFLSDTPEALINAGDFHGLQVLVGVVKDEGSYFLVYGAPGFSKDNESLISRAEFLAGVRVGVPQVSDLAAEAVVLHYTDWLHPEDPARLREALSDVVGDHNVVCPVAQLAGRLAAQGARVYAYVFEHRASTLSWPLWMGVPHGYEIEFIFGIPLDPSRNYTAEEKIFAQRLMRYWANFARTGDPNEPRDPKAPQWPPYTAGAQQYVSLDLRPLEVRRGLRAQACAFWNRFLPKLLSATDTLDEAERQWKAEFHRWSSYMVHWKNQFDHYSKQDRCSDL
PFF0160c: Dihydroorotate dehydrogenase (quinone), mitochondrial (PFF0160c, Plasmodium falciparum, UniProt Q08210)
Chain of UniProt P06276 (whole entry, looked up): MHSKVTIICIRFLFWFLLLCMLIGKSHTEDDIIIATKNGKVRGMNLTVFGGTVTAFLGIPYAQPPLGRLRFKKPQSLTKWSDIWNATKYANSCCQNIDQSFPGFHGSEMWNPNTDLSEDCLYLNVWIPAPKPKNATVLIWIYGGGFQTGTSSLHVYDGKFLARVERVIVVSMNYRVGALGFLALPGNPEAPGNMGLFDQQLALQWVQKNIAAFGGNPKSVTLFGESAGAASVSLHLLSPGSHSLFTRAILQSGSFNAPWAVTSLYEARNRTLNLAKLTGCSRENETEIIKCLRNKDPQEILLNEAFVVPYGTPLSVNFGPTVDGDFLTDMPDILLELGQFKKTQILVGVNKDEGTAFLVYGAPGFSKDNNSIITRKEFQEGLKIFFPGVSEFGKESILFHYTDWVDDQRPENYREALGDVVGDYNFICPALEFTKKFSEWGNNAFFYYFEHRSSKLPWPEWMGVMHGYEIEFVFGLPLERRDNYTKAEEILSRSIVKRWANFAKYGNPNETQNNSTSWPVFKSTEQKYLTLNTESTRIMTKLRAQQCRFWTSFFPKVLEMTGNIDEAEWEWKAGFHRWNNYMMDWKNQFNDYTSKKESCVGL
Chain of UniProt Q08210 (whole entry, looked up): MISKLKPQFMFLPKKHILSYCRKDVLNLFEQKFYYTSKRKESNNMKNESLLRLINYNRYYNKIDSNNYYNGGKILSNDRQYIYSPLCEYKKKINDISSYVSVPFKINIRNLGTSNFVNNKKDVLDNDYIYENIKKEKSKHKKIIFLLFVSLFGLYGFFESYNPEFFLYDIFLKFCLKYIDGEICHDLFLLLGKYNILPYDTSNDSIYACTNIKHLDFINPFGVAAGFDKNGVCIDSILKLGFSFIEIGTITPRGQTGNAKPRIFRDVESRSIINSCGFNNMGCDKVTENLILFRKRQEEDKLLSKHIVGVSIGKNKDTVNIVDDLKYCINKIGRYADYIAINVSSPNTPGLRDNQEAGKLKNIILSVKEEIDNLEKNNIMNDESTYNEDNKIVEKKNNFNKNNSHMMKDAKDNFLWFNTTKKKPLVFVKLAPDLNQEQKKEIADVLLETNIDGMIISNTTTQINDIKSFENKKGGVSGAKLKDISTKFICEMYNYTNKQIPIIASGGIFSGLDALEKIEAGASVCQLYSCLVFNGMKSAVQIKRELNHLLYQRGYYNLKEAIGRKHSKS
Chain of UniProt P28223 (whole entry, looked up): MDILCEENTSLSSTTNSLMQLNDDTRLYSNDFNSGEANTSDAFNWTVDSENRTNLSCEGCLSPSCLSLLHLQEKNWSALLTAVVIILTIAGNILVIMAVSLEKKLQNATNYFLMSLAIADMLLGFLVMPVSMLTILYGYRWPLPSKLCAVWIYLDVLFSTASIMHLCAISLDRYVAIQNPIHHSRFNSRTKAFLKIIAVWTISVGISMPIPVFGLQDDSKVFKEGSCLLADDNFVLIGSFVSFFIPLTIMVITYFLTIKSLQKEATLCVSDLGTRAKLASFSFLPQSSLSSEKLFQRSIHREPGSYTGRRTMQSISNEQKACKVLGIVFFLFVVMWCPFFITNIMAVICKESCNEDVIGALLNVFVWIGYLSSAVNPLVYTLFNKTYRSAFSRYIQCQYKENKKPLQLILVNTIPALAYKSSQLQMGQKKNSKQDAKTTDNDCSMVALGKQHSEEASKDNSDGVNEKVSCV
Chain of UniProt P06493 (whole entry, looked up): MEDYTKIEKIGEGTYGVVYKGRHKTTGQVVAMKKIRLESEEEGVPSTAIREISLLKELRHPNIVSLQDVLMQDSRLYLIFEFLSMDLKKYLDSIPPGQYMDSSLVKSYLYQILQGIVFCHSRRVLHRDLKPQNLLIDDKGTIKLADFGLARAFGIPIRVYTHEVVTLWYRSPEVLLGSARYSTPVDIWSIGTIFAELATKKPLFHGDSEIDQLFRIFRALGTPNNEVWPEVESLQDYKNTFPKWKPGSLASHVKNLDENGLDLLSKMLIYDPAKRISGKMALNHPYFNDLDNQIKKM
Chain of UniProt P81908 (whole entry, looked up): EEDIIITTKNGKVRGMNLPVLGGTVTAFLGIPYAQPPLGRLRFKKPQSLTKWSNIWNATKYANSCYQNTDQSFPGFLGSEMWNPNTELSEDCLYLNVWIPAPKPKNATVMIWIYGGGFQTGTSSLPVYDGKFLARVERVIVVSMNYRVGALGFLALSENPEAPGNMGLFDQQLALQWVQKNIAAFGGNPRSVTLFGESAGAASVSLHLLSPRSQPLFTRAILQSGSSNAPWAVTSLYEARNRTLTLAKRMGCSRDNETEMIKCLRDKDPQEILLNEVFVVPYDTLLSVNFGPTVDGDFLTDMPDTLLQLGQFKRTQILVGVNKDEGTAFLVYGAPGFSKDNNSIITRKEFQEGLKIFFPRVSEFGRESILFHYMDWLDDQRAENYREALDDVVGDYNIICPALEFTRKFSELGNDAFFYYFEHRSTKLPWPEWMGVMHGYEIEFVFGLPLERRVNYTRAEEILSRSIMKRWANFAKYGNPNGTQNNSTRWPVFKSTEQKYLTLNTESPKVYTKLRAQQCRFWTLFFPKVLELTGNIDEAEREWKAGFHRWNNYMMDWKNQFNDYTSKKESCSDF
Chain of UniProt Q8NEB9 (whole entry, looked up): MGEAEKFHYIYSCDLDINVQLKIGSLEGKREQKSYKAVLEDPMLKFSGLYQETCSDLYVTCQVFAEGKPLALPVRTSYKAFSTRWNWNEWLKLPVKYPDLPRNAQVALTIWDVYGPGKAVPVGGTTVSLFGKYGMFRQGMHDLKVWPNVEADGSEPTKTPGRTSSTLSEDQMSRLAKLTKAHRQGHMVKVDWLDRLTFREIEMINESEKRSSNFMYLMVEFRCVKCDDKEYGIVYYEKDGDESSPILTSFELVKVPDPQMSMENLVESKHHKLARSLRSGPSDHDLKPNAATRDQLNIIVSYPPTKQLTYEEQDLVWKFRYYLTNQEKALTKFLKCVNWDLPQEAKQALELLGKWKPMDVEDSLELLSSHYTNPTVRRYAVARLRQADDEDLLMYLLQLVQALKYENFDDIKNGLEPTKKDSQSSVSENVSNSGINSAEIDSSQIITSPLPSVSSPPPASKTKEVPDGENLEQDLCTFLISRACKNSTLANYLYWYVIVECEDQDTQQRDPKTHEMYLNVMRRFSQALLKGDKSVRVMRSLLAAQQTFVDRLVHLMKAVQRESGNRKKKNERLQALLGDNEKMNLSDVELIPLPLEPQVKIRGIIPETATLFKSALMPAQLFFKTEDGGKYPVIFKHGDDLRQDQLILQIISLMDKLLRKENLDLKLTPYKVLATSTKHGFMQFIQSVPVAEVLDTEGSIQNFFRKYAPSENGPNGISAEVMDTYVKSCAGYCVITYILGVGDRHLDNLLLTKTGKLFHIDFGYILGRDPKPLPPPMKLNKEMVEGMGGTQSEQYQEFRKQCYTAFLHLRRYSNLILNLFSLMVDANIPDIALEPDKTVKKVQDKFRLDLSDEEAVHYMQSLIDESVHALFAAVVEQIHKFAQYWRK
Chain of UniProt P21917 (whole entry, looked up): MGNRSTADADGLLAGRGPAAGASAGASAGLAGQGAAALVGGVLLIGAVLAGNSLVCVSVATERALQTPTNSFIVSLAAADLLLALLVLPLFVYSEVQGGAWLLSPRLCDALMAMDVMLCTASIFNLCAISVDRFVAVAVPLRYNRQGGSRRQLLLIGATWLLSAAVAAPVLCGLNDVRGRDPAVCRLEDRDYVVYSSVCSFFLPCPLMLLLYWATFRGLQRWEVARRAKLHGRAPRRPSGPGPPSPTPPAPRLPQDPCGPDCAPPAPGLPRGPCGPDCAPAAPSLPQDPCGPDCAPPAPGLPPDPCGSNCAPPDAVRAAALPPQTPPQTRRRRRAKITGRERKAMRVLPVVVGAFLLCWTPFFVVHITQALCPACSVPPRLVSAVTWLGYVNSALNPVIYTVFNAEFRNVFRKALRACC
Chain of UniProt O14965 (whole entry, looked up): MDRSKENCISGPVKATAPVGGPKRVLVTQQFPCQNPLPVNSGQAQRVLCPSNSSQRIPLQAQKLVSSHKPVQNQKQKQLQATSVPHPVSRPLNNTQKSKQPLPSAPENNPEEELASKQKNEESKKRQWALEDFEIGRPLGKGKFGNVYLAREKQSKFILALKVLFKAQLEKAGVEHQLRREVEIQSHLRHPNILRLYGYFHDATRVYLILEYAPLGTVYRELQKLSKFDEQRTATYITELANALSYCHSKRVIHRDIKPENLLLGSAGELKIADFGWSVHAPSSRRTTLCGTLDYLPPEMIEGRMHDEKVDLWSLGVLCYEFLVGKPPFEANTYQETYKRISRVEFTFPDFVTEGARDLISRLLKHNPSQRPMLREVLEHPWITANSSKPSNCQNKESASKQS

Compound	target	read-out	mode	technique	tested at	endpoint	value
COc1cc(/C=C/C(=O)O)ccc1OCc1cn(CC(=O)Nc2ccc(F)cc2)nn1	Cholinesterase (BCHE, Homo sapiens, UniProt P06276)	enzyme activity	inhibitor	Ellman	40 µM	inhibition	39.4%
Cc1nn(C)cc1-c1nc2c(N3CCN(Cc4ccc(Cl)cc4)CC3)c(Cl)cnc2[nH]1	Tyrosine-protein kinase ABL1, non-phosphorylated (ABL1, Homo sapiens, UniProt P00519)	binding	–	competition with immobilised ligand	1 µM	remaining binding	94%
COc1cc(/C=C/C(=O)O)ccc1OCc1cn(CC(=O)Nc2cccc([N+](=O)[O-])c2)nn1	Cholinesterase (BCHE, Homo sapiens, UniProt P06276)	enzyme activity	inhibitor	Ellman	40 µM	inhibition	20.5%
COc1ncccc1-c1cnn2ccc(N3CCN(C(=O)OC(C)C)CC3)nc12	Aurora kinase A (AURKA, Homo sapiens, UniProt O14965)	binding	–	competition with immobilised ligand	1 µM	remaining binding	70%
CC(C)C[C@H]1C(=O)N2CCC[C@H]2[C@]2(O)O[C@](NC(=O)[C@@H]3C=C4c5cccc6[nH]c(Br)c(c56)C[C@H]4[N+](C)(C)C3)(C(C)C)C(=O)N12	HTR2A (Homo sapiens, UniProt P28223)	ligand displacement	–	radioligand	10 µM	inhibition	96.8%
CN1C(=O)/C(=N\Nc2ncc(-c3cc4ccccc4oc3=O)s2)c2cc(Cl)ccc21	ACHE	enzyme activity	inhibitor	Ellman	10 µM	inhibition	97%
Nc1ccncc1	SCN1A (Homo sapiens, UniProt P35498)	ion current	inhibitor	patch clamp	10 µM	inhibition	-57.8%
Nc1ncc(-c2nc(N3CCOCC3)nc(N3CCOCC3)n2)c(C(F)F)n1	EGFR (Homo sapiens, UniProt P00533, L858R)	cell-free assay	–	competition with immobilised ligand	10 µM	remaining binding	40%
C#Cc1n[nH]c2c(-c3cn(C(C)c4ccccn4)c(=O)[nH]c3=O)cc(F)cc12 (centres unmarked)	PIK3C3 (Homo sapiens, UniProt Q8NEB9)	enzyme activity	inhibitor	–	1 µM	inhibition	3.8%
Cc1cc(Nc2ccc(C(C)(C)C)cc2)c2[nH]ncc2n1	PFF0160c	enzyme activity	inhibitor	absorbance	–	IC50	2700 nM
C[C@H]1O[C@H](O[C@H]2[C@H](O)[C@@H](O)[C@@H](O[C@H]3[C@H](O)[C@@H](O)C(O)O[C@@H]3CO)O[C@@H]2CO)[C@H](O)[C@@H](O)[C@@H]1N[C@H]1C=C(CO)[C@@H](O)[C@H](O)[C@H]1O (some centres unmarked)	MAL12 (Saccharomyces cerevisiae S288c, UniProt P53341)	enzyme activity	inhibitor	absorbance	80 µg/mL	inhibition	43.4%
COc1cc2c(cc1OC)-c1c(OC)c(OC)cc3c1[C@H](C2)N(C)CC3 (racemic)	HTR2C (Homo sapiens, UniProt P28335)	ligand displacement	–	radioligand	10 µM	inhibition	31%
Cc1ncc2c(n1)[C@H](C)[C@@H]1C[C@H]2[C@@](C)(O)CN1Cc1ccccc1	Oprd1 (Rattus norvegicus, UniProt P33533)	ligand displacement	–	radioligand	1 µM	inhibition	0%
CC(C)CC(=O)OC[C@H]1O[C@@](C#N)(c2ccc3c(N)ncnn23)[C@H](O)[C@@H]1O	OPRD1 (Homo sapiens, UniProt P41143)	cell-free assay	–	–	20 µM	inhibition	5%
COc1cc2c(cc1OC)C(=O)N(CC1CCNC1)C2 (centres unmarked)	Cholinesterase (BCHE, Equus caballus, UniProt P81908)	enzyme activity	inhibitor	Ellman	1 µM	inhibition	6.1%
c1cncc([C@@H]2CCCN2)c1	HTR1A (Homo sapiens, UniProt P08908)	ligand displacement	–	–	50 µM	inhibition	-1.57%
COc1cc(/C=C/C(=O)O)ccc1OCc1cn(CC(=O)Nc2ccc(O)cc2)nn1	ACHE	enzyme activity	inhibitor	Ellman	40 µM	inhibition	30%
CCc1ccc(N2C(=O)/C(=C3/C(=O)N(C)c4ccc(Cl)cc43)NC2=S)cc1	ACHE	enzyme activity	inhibitor	Ellman	10 µM	inhibition	91%
COc1cc(/C=C/C(=O)O)ccc1OCc1cn(CC(=O)Nc2ccc([N+](=O)[O-])cc2)nn1	Cholinesterase (BCHE, Homo sapiens, UniProt P06276)	enzyme activity	inhibitor	Ellman	40 µM	inhibition	18.7%
CC(C)OC(=O)[C@H](C)N[P@](=O)(CO[C@H](C)Cn1cnc2c(N)ncnc21)Oc1ccccc1	CDK1 (Homo sapiens, UniProt P06493)	enzyme activity	inhibitor	ADP detection	100 µM	inhibition	81.8%
Cc1c2oc3c(C)ccc(C(=O)N[C@@H]4C(=O)N[C@H](C(C)C)C(=O)N5CCC[C@H]5C(=O)N(C)CC(=O)N(C)[C@@H](C(C)C)C(=O)O[C@@H]4C)c3nc-2c(C(=O)N[C@@H]2C(=O)N[C@H](C(C)C)C(=O)N3CCC[C@H]3C(=O)N(C)CC(=O)N(C)[C@@H](C(C)C)C(=O)O[C@@H]2C)c(N)c1=O	Palmitoyl-protein thioesterase 1 (Homo sapiens, UniProt P50897)	enzyme activity	inhibitor	–	125 µM	inhibition	70.3%
CN1C(=S)N(c2ccccc2)C(=O)/C1=C1/C(=O)N(C)c2ccc(Cl)cc21	ACHE	enzyme activity	inhibitor	Ellman	5 µM	inhibition	60%
CCCN(Cc1nnc(-c2cccs2)o1)C(=O)C1COc2ccccc2O1 (centres unmarked)	PFF0160c	enzyme activity	inhibitor	absorbance	–	IC50	1150 nM
COc1cc(/C=C/C(=O)O)ccc1OCc1cn(CC(=O)NCCc2ccccc2)nn1	Cholinesterase (BCHE, Homo sapiens, UniProt P06276)	enzyme activity	inhibitor	Ellman	40 µM	inhibition	14.9%
[2H]c1c([2H])c([C@]2([2H])CCCN2C(=O)C(C)(C)Oc2ccc3cn[nH]c3c2)c([2H])c([2H])c1C([2H])([2H])[2H]	STK33 (Homo sapiens, UniProt Q9BYT3)	binding	–	competition with immobilised ligand	1 µM	remaining binding	80%
COc1cc(/C=C/C(=O)O)ccc1OCc1cn(CC(=O)Nc2ccccc2Cl)nn1	Cholinesterase (BCHE, Homo sapiens, UniProt P06276)	enzyme activity	inhibitor	Ellman	40 µM	inhibition	20%
Cn1cc(-c2cc(F)cc(N3CCn4c(cc5c4CCCC5)C3=O)c2CO)cc(Nc2ccc(N3CCN(C4COC4)CC3)cn2)c1=O	ABL1 (Homo sapiens, UniProt P00519, G250E)	enzyme activity	inhibitor	–	0.1 µM	inhibition	2%
COc1cc(/C=C/C(=O)O)ccc1OCc1cn(CC(=O)Nc2cccc(C)c2)nn1	ACHE	enzyme activity	inhibitor	Ellman	40 µM	inhibition	16%
CN1CCC[C@H]1c1cccnc1	DRD4 (Homo sapiens, UniProt P21917)	ligand displacement	–	–	50 µM	inhibition	-5.26%
